Experimental data collected from several papers.
Compare with care: the assays were run in different laboratories. Values joined by “and” are separate records of one study, mostly repeats; a detail may differ. Numbers after ± are the reported error.
Nuclear receptor subfamily 2 group C member 2 ligand-binding domain: Nuclear receptor subfamily 2 group C member 2, ligand-binding domain (Homo sapiens, UniProt P49116)
Chain of UniProt P49116 (whole entry, looked up): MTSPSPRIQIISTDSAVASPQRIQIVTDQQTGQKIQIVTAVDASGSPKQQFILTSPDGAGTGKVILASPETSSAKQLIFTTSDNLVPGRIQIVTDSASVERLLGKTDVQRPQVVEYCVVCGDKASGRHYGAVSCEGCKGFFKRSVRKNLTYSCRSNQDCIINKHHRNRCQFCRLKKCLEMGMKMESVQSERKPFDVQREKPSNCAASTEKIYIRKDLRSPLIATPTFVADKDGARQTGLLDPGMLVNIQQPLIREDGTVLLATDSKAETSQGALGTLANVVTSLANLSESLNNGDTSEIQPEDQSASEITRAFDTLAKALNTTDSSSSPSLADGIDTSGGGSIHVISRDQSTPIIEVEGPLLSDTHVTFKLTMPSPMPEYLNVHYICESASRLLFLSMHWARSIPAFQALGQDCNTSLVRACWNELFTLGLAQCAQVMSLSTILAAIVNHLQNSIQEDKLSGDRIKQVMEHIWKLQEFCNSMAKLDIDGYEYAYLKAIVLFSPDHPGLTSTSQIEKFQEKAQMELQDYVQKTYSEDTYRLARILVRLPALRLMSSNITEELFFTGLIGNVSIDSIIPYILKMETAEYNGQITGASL
ATRX F284Y/K251R: Transcriptional regulator ATRX (ATRX, Homo sapiens, UniProt P46100, F284Y/K251R)
F-box only protein 22 with SKP1: F-box only protein 22, with SKP1 (Homo sapiens, UniProt Q8NEZ5)
Chain of UniProt Q8NEZ5 (whole entry, looked up): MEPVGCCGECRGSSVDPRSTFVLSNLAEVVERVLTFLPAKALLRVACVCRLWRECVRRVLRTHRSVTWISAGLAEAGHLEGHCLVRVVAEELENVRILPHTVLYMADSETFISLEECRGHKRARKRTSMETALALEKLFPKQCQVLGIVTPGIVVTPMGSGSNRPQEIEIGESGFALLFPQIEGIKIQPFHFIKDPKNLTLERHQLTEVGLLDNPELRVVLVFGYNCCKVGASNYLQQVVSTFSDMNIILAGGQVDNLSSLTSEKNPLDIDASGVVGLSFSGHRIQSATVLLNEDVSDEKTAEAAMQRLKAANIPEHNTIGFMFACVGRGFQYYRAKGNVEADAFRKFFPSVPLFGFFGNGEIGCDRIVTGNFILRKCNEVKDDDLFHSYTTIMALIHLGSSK
T1: ssRNA, hairpin with 1x1 G/G internal loops (Homo sapiens); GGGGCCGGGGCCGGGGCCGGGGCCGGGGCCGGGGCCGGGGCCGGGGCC
Chain of UniProt Q64663 (whole entry, unmodified, looked up): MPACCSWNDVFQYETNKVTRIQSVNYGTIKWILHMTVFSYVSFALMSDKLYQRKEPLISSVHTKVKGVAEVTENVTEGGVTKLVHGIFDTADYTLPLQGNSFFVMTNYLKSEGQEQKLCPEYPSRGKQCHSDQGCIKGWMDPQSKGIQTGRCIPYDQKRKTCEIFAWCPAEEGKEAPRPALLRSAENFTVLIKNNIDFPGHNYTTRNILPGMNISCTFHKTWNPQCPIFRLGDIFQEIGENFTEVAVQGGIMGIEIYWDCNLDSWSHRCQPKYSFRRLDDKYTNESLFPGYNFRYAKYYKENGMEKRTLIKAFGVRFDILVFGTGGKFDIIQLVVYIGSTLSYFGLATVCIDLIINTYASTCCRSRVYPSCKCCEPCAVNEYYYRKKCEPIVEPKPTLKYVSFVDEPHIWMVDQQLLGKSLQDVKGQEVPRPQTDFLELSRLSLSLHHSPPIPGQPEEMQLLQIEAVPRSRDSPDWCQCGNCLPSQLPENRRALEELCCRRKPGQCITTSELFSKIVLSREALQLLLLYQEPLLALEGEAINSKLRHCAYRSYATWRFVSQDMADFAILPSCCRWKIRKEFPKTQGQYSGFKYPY
Chain of UniProt P27361 (whole entry, looked up): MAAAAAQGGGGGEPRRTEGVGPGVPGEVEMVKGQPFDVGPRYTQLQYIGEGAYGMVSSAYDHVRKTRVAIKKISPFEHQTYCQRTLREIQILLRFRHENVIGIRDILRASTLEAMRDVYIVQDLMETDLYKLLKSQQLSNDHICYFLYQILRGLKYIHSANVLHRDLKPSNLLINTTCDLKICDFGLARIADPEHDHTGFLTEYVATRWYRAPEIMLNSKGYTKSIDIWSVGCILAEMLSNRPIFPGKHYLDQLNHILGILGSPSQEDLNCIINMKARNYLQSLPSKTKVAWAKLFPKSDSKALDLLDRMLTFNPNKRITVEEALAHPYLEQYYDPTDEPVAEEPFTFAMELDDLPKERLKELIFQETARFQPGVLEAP
Chain of UniProt Q16774 (whole entry, unmodified, looked up): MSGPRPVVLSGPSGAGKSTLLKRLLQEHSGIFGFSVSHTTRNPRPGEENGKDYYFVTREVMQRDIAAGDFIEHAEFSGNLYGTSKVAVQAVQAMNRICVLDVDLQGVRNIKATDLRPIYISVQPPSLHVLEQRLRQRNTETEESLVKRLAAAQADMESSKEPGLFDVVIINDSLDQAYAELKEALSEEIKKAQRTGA
Chain of UniProt P51575 (whole entry, unmodified, looked up): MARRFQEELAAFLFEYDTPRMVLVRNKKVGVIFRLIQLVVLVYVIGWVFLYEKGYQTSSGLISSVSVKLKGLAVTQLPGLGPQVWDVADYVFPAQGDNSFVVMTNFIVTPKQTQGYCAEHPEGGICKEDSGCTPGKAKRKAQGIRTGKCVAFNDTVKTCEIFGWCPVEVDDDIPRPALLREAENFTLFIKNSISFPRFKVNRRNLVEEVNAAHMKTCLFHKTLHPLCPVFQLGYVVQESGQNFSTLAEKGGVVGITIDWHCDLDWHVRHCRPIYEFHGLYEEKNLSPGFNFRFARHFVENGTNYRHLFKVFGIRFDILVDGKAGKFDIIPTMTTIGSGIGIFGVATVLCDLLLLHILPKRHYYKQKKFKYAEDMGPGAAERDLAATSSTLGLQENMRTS
Chain of UniProt P11388 (whole entry, looked up): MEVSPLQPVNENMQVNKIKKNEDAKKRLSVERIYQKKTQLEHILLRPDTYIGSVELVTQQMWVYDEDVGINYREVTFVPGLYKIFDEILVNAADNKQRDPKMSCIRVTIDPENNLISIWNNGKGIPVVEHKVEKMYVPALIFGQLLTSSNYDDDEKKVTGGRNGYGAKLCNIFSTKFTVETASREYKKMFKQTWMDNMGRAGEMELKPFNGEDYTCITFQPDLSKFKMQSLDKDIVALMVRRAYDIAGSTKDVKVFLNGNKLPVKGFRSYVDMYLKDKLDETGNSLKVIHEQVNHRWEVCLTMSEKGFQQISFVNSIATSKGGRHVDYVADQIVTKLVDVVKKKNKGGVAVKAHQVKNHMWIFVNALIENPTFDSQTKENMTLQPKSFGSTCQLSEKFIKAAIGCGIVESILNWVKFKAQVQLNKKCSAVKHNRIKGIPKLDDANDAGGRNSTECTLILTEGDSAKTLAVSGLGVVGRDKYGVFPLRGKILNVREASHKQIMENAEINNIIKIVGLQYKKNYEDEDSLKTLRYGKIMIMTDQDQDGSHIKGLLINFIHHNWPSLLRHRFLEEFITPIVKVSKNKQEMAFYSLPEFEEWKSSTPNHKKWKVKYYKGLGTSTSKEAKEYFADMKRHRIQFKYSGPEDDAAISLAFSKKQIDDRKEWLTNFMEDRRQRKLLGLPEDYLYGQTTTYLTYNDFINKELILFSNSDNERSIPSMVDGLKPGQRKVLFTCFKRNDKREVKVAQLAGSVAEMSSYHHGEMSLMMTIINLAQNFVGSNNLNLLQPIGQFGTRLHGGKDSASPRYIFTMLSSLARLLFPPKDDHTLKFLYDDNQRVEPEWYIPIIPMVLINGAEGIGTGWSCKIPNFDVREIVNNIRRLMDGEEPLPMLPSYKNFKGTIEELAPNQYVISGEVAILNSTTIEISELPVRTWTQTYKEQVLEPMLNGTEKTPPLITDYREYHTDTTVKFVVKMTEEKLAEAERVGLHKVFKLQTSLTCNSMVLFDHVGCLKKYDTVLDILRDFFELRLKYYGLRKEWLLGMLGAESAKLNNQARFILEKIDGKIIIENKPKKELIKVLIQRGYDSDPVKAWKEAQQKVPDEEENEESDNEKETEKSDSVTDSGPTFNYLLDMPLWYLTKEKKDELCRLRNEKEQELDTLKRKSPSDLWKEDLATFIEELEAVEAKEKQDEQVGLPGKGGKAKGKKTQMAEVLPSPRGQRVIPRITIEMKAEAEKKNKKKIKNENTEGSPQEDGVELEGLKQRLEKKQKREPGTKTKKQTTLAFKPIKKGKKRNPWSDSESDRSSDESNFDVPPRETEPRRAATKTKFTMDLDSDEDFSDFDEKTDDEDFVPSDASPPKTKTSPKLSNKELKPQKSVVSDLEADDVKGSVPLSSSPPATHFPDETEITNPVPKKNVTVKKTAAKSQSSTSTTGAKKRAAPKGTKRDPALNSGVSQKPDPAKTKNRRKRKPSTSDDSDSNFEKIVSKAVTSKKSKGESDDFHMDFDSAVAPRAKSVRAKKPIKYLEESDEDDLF
Chain of UniProt Q13639 (whole entry, looked up): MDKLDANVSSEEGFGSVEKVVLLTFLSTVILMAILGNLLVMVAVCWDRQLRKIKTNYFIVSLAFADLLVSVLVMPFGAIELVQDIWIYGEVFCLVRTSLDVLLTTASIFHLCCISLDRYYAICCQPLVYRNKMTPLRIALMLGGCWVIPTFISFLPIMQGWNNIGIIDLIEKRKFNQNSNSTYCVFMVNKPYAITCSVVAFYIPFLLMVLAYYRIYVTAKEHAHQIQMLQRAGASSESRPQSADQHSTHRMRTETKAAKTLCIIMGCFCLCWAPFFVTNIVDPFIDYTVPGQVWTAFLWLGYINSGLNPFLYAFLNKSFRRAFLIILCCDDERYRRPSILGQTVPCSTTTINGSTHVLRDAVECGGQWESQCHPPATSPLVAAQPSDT
Chain of UniProt P46093 (whole entry, looked up): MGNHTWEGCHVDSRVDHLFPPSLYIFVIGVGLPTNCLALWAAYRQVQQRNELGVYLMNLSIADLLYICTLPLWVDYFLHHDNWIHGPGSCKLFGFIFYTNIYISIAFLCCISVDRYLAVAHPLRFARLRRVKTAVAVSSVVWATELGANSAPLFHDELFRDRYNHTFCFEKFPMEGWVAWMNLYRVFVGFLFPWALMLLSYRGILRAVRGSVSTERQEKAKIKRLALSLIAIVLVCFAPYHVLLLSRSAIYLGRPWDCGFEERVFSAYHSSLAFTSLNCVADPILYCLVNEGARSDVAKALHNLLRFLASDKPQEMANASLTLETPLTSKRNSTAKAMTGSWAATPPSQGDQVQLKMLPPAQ

Compound | target or system | assay | test system | setting | how to read | measurement | result
COCCOC(=O)C1=C(C)NC(C)=C(C(=O)OC(C)C)C1c1cccc([N+](=O)[O-])c1 (centres unmarked) | Nuclear receptor subfamily 2 group C member 2 ligand-binding domain | SPR imaging |  | 600 nM |  | koff | 1.48e-06 s⁻¹
O=c1nc(SCc2cc(F)cc(C(F)(F)F)c2)nc(SCc2ccc3nc(Cl)ccc3c2)[nH]1 | TOP2A (Homo sapiens, UniProt P11388) | ATPase activity |  | 7.8 µM, added: ATP 0.1 mM |  | ATP hydrolysis rate | 0.218 µM/min and 1.01 µM/min
C[C@H](N)C(=O)N[C@@H](C)C(=O)N[C@H](C(=O)N[C@@H](CCCCN)C(=O)N[C@@H](CCC(N)=O)C(=O)N[C@H](C(=O)N[C@@H](C)C(=O)N[C@@H](CCCNC(=N)N)C(=O)N[C@@H](CCCCN)C(=O)N[C@@H](CO)C(=O)O)[C@@H](C)O)[C@@H](C)O | ATRX F284Y/K251R | isothermal titration calorimetry |  | concentration not given, pH 7.5, 25.0 °C |  | binding entropy | 2.84 cal/mol/K
O=C1/C(=C2/C(=O)N(Cc3ccc(F)cc3)c3ccccc32)SC(=S)N1CCCCCCO | Serotonin N-acetyltransferase (Ovis aries, UniProt Q29495) | enzyme activity, inhibitor |  | concentration not given, added: acetyl-CoA |  | activity class | inactive
CCS(=O)(=O)N1CC(CC#N)(n2cc(-c3ncnc4[nH]ccc34)cn2)C1 | ORM1 (Homo sapiens, UniProt P02763) | fluorescence quenching |  | 293 K |  | bimolecular quenching constant | 5.92e+12 ± 4.1e+11 M⁻¹ s⁻¹
Cc1cccc(N2CC(C(=O)O)CC2=O)c1 (centres unmarked) | F-box only protein 22 with SKP1 | binding, affinity selection mass spectrometry |  |  | reference: other proteins in batch | fold enrichment | 1.51
C[S+](CC[C@H](N)C(=O)O)C[C@H]1O[C@@H](n2cnc3c(N)ncnc32)[C@H](O)[C@@H]1O (some centres unmarked) | O-methyltransferase (Sorghum bicolor, UniProt A0A1B6PFV1) | isothermal titration calorimetry |  | concentration not given, apo protein |  | -TΔS of binding | 2.3 kJ/mol
Cn1cc(-c2ccc(-c3cncc(Cl)c3N3CCC4(CCNC4=O)CC3)cc2)cn1 | COLO 205 | gene expression, microarray, refers to: LSS mRNA |  | concentration not given, 6 h | reference: untreated cells | log2 fold change | -1.14
Nc1[nH]nc2nnc(-c3c(-c4ccccc4)nn4ccccc34)cc12 | MAPK3 (Homo sapiens, UniProt P27361) | ADP-Glo |  | 631 nM, added: MBP substrate |  | kinase activity | 66.8% and 52.3% and 72.9%
Nc1ncnc2c1ncn2[C@@H]1O[C@H](COP(=O)(O)OP(=O)(O)OP(=O)(O)O)[C@@H](O)[C@H]1O | GUK1 (Homo sapiens, UniProt Q16774, S13A) | enzyme activity, substrate, NADH-coupled |  |  |  | kcat | 24.1 s⁻¹
O=C(O)C1CCCNC1 (centres unmarked) | SLC6A6 (Homo sapiens, UniProt P31641, Y138A) | binding, microscale thermophoresis |  | 40.3 nM, fitted curve | higher = more binding | fraction bound | 0.00199
O=C(COP(=O)(O)O)[C@@H](O)[C@H](O)[C@H](O)COP(=O)(O)O | Large ribosomal subunit protein uL30 (Homo sapiens, UniProt P18124) | thermal proteome profiling, refers to: RPL7 | HepG2 cell lysate | concentration not given, 57 over 37 °C | reference: compound over control | thermal stability ratio | 0.867 and 0.708 and 0.5
C[C@H](N)C(=O)N[C@@H](CCCNC(=N)N)C(=O)N[C@H](C(=O)N[C@@H](CCCCN)C(=O)N[C@@H](CCC(N)=O)C(=O)N[C@H](C(=O)N[C@@H](C)C(=O)N[C@@H](CCCNC(=N)N)C(=O)N[C@@H](C)C(=O)N[C@@H](CO)C(=O)O)[C@@H](C)O)[C@@H](C)O | ATRX F284Y/K251R | isothermal titration calorimetry |  | pH 7.5, 25.0 °C |  | binding free energy | -26.1 kJ/mol
[H]/N=C(/N)NS(=O)(=O)c1ccc(N)cc1 | Nuclear receptor subfamily 2 group C member 2 ligand-binding domain | SPR imaging |  | 600 nM |  | koff | 2.34e-05 s⁻¹
CC1=C(/C=C/C(C)=C/C=C/C(C)=C/C=O)C(C)(C)CCC1 | Rhodopsin (RHO, Bos taurus, UniProt P02699, L266T) | retinal entry, Trp FRET | lipid bicelles | 28 °C, L266T mutant | reference: wild-type rhodopsin | relative kon | 1.33 ± 0.22
COc1c(O)c(C)cc2c1C(=O)c1c(ccc(O)c1O)C2=O | HepaRG co-cultured with HK-2 | MTT |  | 66.67 µM, 48 h | reference: untreated control | cell viability | 39.8 ± 3.29%
O=C1OC(c2ccccc2)=N/C1=C\c1ccc(O)cc1 | Pancreatic alpha-amylase (Homo sapiens, UniProt P04746) | inhibitor, Lineweaver-Burk |  | 100 ppm, added: starch substrate |  | Vmax | 0.048 mg/mL/min
Cc1ncc([N+](=O)[O-])n1CCO | Nuclear receptor subfamily 2 group C member 2 ligand-binding domain | SPR imaging |  | 600 nM |  | koff | 1.25e-05 s⁻¹
COc1cccc(OC[C@H]2CN(CCN3CCc4ccccc43)CCO2)c1 | HTR4 (Homo sapiens, UniProt Q13639) | radioligand binding |  | concentration not given |  | inhibition | 10.3%
C[C@H](CCC(C)(C)O)[C@H]1CC[C@H]2[C@@H]3CC=C4C[C@@](C)(O)CC[C@]4(C)[C@H]3CC[C@]12C | Ionotropic glutamate receptor NMDA 1/2C (Homo sapiens, UniProt Q05586+Q14957) | ion current, positive allosteric modulator, automated patch clamp | HEK293 | concentration not given, added: 0.8 µM glutamate, glycine |  | potentiation | no effect
O=S(=O)(O)O | GUK1 (Homo sapiens, UniProt Q16774) | enzyme activity, NADH-coupled |  | 1 mM, added: ATP 500 µM |  | reaction velocity | 0.106 µM/s and 0.109 µM/s and 0.114 µM/s

Compound | target or system | assay | test system | setting | how to read | measurement | result
C=CC(=O)N1CCC(COCC(=O)N2CCN(c3nc(-c4cnc(N)nc4C(F)F)nc(N4CCOC[C@@H]4C)n3)CC2)CC1 | CAMK2G (Homo sapiens, UniProt Q13555) | KINOMEscan |  | 1 µM |  | remaining binding | 100%
CC[C@H](C)[C@H](NC(=O)[C@H](CCC(=O)O)NC(=O)[C@H](CCC(=O)O)NC(=O)[C@@H]1CCCN1C(=O)[C@H](CC(=O)O)NC(=O)[C@H](C)NC(=O)[C@H](CCC(N)=O)NC(=O)[C@@H](NC(=O)[C@H](C)NC(=O)[C@@H](NC(=O)[C@H](CO)NC(=O)[C@@H](NC(=O)[C@H](CCCCN)NC(=O)[C@@H](N)Cc1ccc(O)cc1)[C@@H](C)O)C(C)C)[C@@H](C)O)C(=O)N[C@H](C(=O)N[C@H](C(=O)N[C@@H](CC(C)C)C(=O)N[C@@H](CC(=O)O)C(=O)N[C@@H](CC(=O)O)C(=O)N[C@@H](CC(=O)O)C(=O)N[C@@H](CC(=O)O)C(=O)O)C(C)C)[C@@H](C)CC | Small ubiquitin-related modifier 1, residues 17-97 (Homo sapiens, UniProt P63165, C52A) | isothermal titration calorimetry |  | concentration not given, pH 7.4, N-terminally truncated SUMO1 |  | enthalpy change (ΔH) | 18.91 ± 0.126 kJ/mol
O=C(O)[C@@H]1CCCN1c1ncnc2[nH]cnc12 (racemic) | F-box only protein 22 with SKP1 | binding, affinity selection mass spectrometry |  |  | reference: other proteins in batch | fold enrichment | 0.87
O=C(Nc1cnc2ccccc2c1)c1cc2[nH]ccc2cc1Cl | COS-7 |  |  | 1 µM, 24 h, 0.1% DMSO, unit not given | reference: vehicle control | necrotic cells | 1.03 ± 0.39
O=C(O)c1cc(O)c2c(c1)C(=O)c1cccc(O[C@@H]3O[C@H](CO)[C@@H](O)[C@H](O)[C@H]3O)c1C2=O | HepaRG co-cultured with HK-2 | MTT |  | 266.67 µM, 48 h | reference: untreated control | cell viability | 45.7 ± 5.41%
O=C(O)c1ccc(=O)c2nc3c4c(ccc3[nH]c1-2)[C@@H]1Cc2nc3cccc(O)c3nc2[C@H](O4)[C@H]1O | Eukaryotic translation initiation factor 4E, with 4E-BP1 (EIF4E, Homo sapiens, UniProt P06730) | click chemistry enzyme-linked |  |  |  | Hill slope | ~-1
COC(=O)CCc1ccc(OCC(O)CNC(C)C)cc1 (centres unmarked) | Nuclear receptor subfamily 2 group C member 2 ligand-binding domain | SPR imaging |  | 600 nM |  | koff | 2.8e-07 s⁻¹
CC(=O)c1ccc2cc(S(=O)(=O)Nc3ccccc3)ccc2c1 | STAT3 (Homo sapiens, UniProt P40763) | tyrosine phosphorylation, inhibitor, ELISA, refers to: phospho-Tyr705 |  |  |  | log IC50 | 0.768
CC(C)C[C@H](NC(=O)C[C@H](O)[C@H](CC(C)C)NC(=O)[C@H](Cc1c[nH]cn1)NC(=O)CNC(=O)[C@@H](NC(=O)[C@H](C)NC(=O)[C@H](Cc1c[nH]c2ccccc12)NC(=O)[C@H](CCC(N)=O)NC(=O)[C@@H](Cc1ccccc1)NC(=O)COCCOCCNC(=O)CCC(C(=O)O)N1CCN(CC(=O)O)CCN(CC(=O)O)CCN(CC(=O)O)CC1)C(C)C)C(N)=O (some centres unmarked) [lutetium-177 labelled] |  |  | BALB/c nu/nu mice, female, brain | 100 pmol, 30 min, time course 0.5 h, added: PA 300 µg |  | tissue uptake | 0.07 ± 0.03 %ID/g
CC1(C)CC2(C)OC(=O)NC2(C)c2ccccc21 (centres unmarked) | DCAF1 (Homo sapiens, UniProt Q9Y4B6) | binding, affinity selection mass spectrometry |  |  | reference: other proteins in batch | fold enrichment | 0.815
Cc1n[nH]c2ccc(-c3cc(OC[C@@H](N)Cc4ccccc4)cnc3-c3ccoc3)cc12 | Serine/threonine-protein kinase CBK1 (CBK1, Candida albicans, UniProt Q5AP53) | kinase binding, competitor, MIB/MS competition, refers to: CBK1 | Candida albicans cell lysate | 100 nM | reference: DMSO | log2 fold change | 0.0978
Nc1ncnc2c1ncn2[C@@H]1O[C@H](COP(=O)(O)OP(=O)(O)OP(=O)(O)O)[C@@H](O)[C@H]1O | P2X purinoceptor 7 (P2rx7, Rattus norvegicus, UniProt Q64663, Q143A) | ion current, agonist, two-electrode voltage clamp | Xenopus laevis oocytes | 19 µM | reference: highest concentration response | normalized current | 0.00971 and 0.0245 and 0.0366
CCN1CCC[C@H]1CNC(=O)c1c(O)c(Cl)cc(Cl)c1OC | GPR4 (Homo sapiens, UniProt P46093) | β-arrestin recruitment, TANGO luminescence |  | concentration not given | reference: basal luminescence | log2 fold change | 0.032
O=C(O)CCc1nc(-c2ccccc2)c(-c2ccccc2)o1 | COS-7 |  |  | 100 µM, 24 h, 0.1% DMSO, unit not given | reference: control | necrosis | 0.7 ± 0.22
COc1cc(Nc2ncc3c(n2)-c2ccc(Cl)cc2C(c2c(F)cccc2OC)=NC3)ccc1C(=O)O | CSK | kinase activity |  | 1 µM |  | remaining activity | 39%
CCCCC[S+]([O-])c1n[nH]c(N)n1 (centres unmarked) | F-box only protein 22 with SKP1 | binding, affinity selection mass spectrometry |  |  | reference: other proteins in batch | fold enrichment | 0.76
Nc1ncnc2c1ncn2[C@@H]1O[C@H](COP(=O)(O)CP(=O)(O)OP(=O)(O)O)[C@@H](O)[C@H]1O | P2X purinoceptor 1 (P2RX1, Homo sapiens, UniProt P51575, K136A) | saturation binding | HEK293 | 25 nM |  | specific binding | 1300 CCPM and 1340 CCPM
CCCC[C@H]1CN(c2cccc(OC(F)(F)F)c2)C(=O)CN1Cc1cncn1Cc1ccc(C#N)c(F)c1 | Cryptococcus neoformans farnesyltransferase | enzyme activity, inhibitor, fluorescence |  | added: 1 µM FPP, 0.5 µM dansylated peptide |  | IC50 | 0.04 µM
NC(=O)CN1CCCN(C(=O)CN2CCCN(Cc3cccc4cnccc34)CC2)CC1 | T1, ssRNA, hairpin with 1x1 G/G internal loops (Homo sapiens) | competitor, competitive Chem-CLIP |  | 100 µM |  | binding | binds
O=C(/C=C\n1cnc(-c2cc(C(F)(F)F)cc(C(F)(F)F)c2)n1)NNc1cnccn1 | Exportin-1 (XPO1, Homo sapiens, UniProt O14980) | nuclear export, high content imaging | HeLa Kyoto reporter | 0.01 µM, 2 h |  | cells with nuclear reporter | 1.49% and 1.59%

Repeated from above:
Compound | target or system | assay | test system | setting | how to read | measurement | result
O=C(O)[C@@H]1CCCN1c1ncnc2[nH]cnc12 (racemic) | F-box only protein 22 with SKP1 | binding, affinity selection mass spectrometry |  |  | reference: other proteins in batch | fold enrichment | 0.87
O=C(Nc1cnc2ccccc2c1)c1cc2[nH]ccc2cc1Cl | COS-7 |  |  | 1 µM, 24 h, 0.1% DMSO, unit not given | reference: vehicle control | necrotic cells | 1.03 ± 0.39
O=C(O)c1cc(O)c2c(c1)C(=O)c1cccc(O[C@@H]3O[C@H](CO)[C@@H](O)[C@H](O)[C@H]3O)c1C2=O | HepaRG co-cultured with HK-2 | MTT |  | 266.67 µM, 48 h | reference: untreated control | cell viability | 45.7 ± 5.41%
